Published values of several laboratories.
Numbered parts are unrelated; each lists some results of a single study.

Sample 1
Target: Interferon regulatory factor 5, full length, phosphomimetic (IRF5, Homo sapiens, UniProt Q13568-2, residues 1-514, S451D/S453D/S456D/S462D)
Method: protein-binding microarray
Form: double-stranded DNA, one strand shown
Sample: in vitro
Tested at: 940 nM top
Notes: 60-bp whole probe
With: salmon DNA 0.4 mg/ml
Relative to: random background probes
Reading: higher = stronger binding
All sequences stand within: GCCTAGCAC … GTCTTGATTCGCTTGACGCTGCTG
`TTAGATTTCAGACTGGCTTAGTGCTAG` — result for “fitted relative affinity”: -0.196 z-score.
`GACGGTTTCGACTTTTGGGACGTGCTA` — result for “fitted relative affinity”: 6.69 z-score.
`TTAGGTTTCCTACTGCCTTAGTGCTAG`: “fitted relative affinity” 0.736 z-score.
For `TTAGTTCTCAGTTTCGATTAGTGCTAG`, “fitted relative affinity” read 8.55 z-score.
Under “fitted relative affinity”, `GACGATTCCAGTTTCGAGACGTGCTAG` is recorded as 4.69 z-score.
`GTCGATATCAGTATCGAGACGTGCTAG`: “fitted relative affinity” 2.99 z-score.
`GACGGTTTCGACTTTCGGAACGTGCTA` — result for “fitted relative affinity”: 7.35 z-score.
`GACGAACTGCGGTTTCGAGACGTGCTA`: “fitted relative affinity” 1.67 z-score.

Sample 2
Target: Sal-like protein 4, full length isoform A (SALL4, Homo sapiens, UniProt Q9UJQ4, residues 1-1053)
Chain of UniProt Q9UJQ4 (whole entry, looked up): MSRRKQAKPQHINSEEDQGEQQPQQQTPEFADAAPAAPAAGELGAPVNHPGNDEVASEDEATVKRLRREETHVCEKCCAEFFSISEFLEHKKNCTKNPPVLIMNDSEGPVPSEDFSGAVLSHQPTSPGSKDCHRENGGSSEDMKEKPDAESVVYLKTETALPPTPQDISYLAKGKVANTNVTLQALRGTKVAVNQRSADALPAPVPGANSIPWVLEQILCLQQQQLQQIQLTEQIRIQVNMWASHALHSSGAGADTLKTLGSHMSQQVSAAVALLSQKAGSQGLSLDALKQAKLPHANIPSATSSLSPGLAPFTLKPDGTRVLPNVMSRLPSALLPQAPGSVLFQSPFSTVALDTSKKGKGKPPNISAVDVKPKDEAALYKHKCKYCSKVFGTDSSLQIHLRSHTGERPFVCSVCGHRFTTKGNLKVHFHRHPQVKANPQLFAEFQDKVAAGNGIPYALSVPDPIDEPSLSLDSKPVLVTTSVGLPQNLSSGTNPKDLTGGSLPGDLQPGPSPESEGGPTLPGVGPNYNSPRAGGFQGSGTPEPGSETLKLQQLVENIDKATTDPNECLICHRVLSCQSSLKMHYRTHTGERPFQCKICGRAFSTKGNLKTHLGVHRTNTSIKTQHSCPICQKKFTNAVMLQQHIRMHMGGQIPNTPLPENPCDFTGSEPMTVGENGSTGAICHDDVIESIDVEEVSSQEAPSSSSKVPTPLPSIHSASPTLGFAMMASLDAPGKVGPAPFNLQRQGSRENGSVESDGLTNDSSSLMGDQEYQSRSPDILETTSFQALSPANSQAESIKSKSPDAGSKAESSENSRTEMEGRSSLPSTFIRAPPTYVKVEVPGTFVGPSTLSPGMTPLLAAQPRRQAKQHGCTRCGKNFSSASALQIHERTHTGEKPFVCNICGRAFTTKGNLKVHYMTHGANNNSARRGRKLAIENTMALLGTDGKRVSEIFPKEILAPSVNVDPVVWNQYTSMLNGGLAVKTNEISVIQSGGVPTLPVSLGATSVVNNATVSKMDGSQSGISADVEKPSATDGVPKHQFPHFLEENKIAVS
Method: universal PBM
Form: double-stranded DNA, one strand shown
Sample: in vitro
Tested at: 600 nM
Notes: 8-mer, flanks averaged, mean of replicates
Reading: higher = stronger binding
With `AGTATAAG` the E-score was 0.292.
`ATATTCAA` has an E-score of 0.376.
`CCGTTCTA` gave an E-score of 0.0299.
The E-score of `AATTTTCT` is reported as 0.228.
With `AAGCAAGG` the E-score was -0.123.
For `ACTTAGGC`, the E-score was -0.153.
`AGGCAGTA` gave an E-score of -0.0871.
For `GGAGTGGA`, the E-score was -0.0809.

Sample 3
Target: Centromere-binding protein 1, full length, N-terminal tag (CBF1, Saccharomyces cerevisiae, UniProt P17106, residues 1-351)
Chain of UniProt P17106 (whole entry, looked up): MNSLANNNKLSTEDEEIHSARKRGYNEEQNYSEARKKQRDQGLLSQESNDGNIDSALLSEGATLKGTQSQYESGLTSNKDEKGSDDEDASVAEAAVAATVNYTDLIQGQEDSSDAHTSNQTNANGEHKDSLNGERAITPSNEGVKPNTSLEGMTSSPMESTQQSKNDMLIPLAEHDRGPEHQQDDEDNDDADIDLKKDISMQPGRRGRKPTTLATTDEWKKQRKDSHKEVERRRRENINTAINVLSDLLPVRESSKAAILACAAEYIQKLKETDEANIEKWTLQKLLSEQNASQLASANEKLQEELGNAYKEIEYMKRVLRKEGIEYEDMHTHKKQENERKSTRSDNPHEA
Method: protein-binding microarray
Form: double-stranded DNA, one strand shown
Sample: in vitro
Tested at: 0.8 µM
Notes: whole 60-bp probe, no competitor
Reading: higher = stronger binding
With `GAAATTTGAGCTATTTACGTGACTTCATCTTAGTAGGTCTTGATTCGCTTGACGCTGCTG` the fluorescence intensity was 599 a.u.
With `GAAGAGGCGTAAAGTAGTCTCATGAAGTAGATGTAGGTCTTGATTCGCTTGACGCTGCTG` the fluorescence intensity was 541 a.u.
The fluorescence intensity of `GAAGAGTCAATGAGTGGTGTGACCCCAATACCATAGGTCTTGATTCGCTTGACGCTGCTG` is reported as 1090 a.u.
`CTAGTACCATGCAGCCATCACTACATACTAGCATTCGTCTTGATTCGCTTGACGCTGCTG` has a fluorescence intensity of 521 a.u.
With `GAAATAAATAAACATCATCACAAGCAAGGTTATTAGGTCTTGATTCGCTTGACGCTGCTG` the fluorescence intensity was 519 a.u.
For `GAATAATTCTATCATCACGCTTATAGTGTTTACTAGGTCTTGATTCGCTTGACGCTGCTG`, the fluorescence intensity was 635 a.u.

Single results of other studies
`PhoQ, residues 284 288 289 292 302 303 ALASRC` gave a fold induction of 3.31 (PhoP, residues 12 14 15 18 19 NQCAL (Escherichia coli, UniProt P23836); Sort-seq, measured: YFP reporter; E. coli; PhoQ-PhoP variant library, with: 10 µM Mg2+; relative to: high Mg2+ state, higher = stronger signaling).

For quick reference, copied from above (sample 3):
For `GAATAATTCTATCATCACGCTTATAGTGTTTACTAGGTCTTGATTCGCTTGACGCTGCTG`, the fluorescence intensity was 635 a.u.
With `GAAATTTGAGCTATTTACGTGACTTCATCTTAGTAGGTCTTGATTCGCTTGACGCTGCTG` the fluorescence intensity was 599 a.u.
The fluorescence intensity of `GAAGAGTCAATGAGTGGTGTGACCCCAATACCATAGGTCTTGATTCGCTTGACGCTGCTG` is reported as 1090 a.u.
